Assay results pooled from the literature.
Numbered parts are unrelated; each lists some results of a single study. ± gives the spread as reported.

Set 1
Target: crk3 (Leishmania mexicana, UniProt O15851)
Effect on: enzyme activity
Mode: inhibitor
Technique: radiometric
Measurement: IC50
SMILES = Cc1cccc(-c2ccc3nc(NC(=O)C4CCOCC4)nn3c2)c1; value = 10 µM
SMILES = O=C(Nc1nc2ccc(-c3cccc4[nH]ccc34)cn2n1)C1CCCCC1; value = 0.07 µM
SMILES = Cc1cccc(-c2ccc3nc(NC(=O)C4CCCNC4)nn3c2)c1 (stereo not shown); value = 12 µM
SMILES = COc1cc(-c2ccc3nc(NC(=O)C4CCCCC4)nn3c2)ccc1O; value = 0.23 µM
SMILES = CC(=O)Nc1nc2ccc(-c3cccc(C)c3)cn2n1; value = 65 µM
SMILES = Cc1ccc(C)c(-c2ccc3nc(NC(=O)C4CCCCC4)nn3c2)c1; value = 0.65 µM
SMILES = Cc1cccc(-c2ccc3nc(N)nn3c2)c1; value = > 100 µM
SMILES = COc1ccc(-c2ccc3nc(NC(=O)C4CCCCC4)nn3c2)cc1C; value = 0.03 µM

Mixed results
Structure (SMILES) = CCCCn1ccn2c(-c3ccc4[nH]ccc4c3)c(C)nc2c1=O; test system = rat liver microsomes; conditions = 5 µM, 15 min; measurement = metabolized fraction; value = 97%
Structure (SMILES) = CC(C)C[C@H](NC(=O)OCc1cccc(Cl)c1)C(=O)N[C@H](C=O)C[C@@H]1CCNC1=O; target or system = feline coronavirus; test system = CRFK, FIPV-1146; scale = reference: CC50 over EC50; measurement = therapeutic index; value = > 3750
Structure (SMILES) = O=C(O)COc1ccccc1/C=N/NC(=O)CNc1ccc(Cl)cc1; assay = item: latency to stage 3; test system = male mice, pilocarpine-induced seizures; conditions = oral, 20 mg/kg, dosed 30 min before pilocarpine, together with: pilocarpine 300 mg/kg i.p.; scale = reference: pilocarpine vehicle group; measurement = seizure latency increase; value = 95%
Structure (SMILES) = Cc1ccc(Oc2ccc(-c3ccn4c(CC5CC5)nnc4c3C(F)(F)F)cc2F)c(C)n1; test system = rat Sprague Dawley male, plasma; conditions = subcutaneous, 10 mg/kg, 2 h; measurement = plasma concentration; value = 442 ng/mL
Structure (SMILES) = O=C(O)COc1ccc(Br)cc1/C=N/NC(=O)c1ccc(Cl)cc1; test system = mouse, pilocarpine-induced seizures; conditions = oral, 20 mg/kg, together with: pilocarpine 300 mg/kg i.p.; measurement = latency to forelimb clonus; value = 15.1 ± 0.43 min
Structure (SMILES) = O=C[C@H](C[C@@H]1CCNC1=O)NC(=O)[C@H](CC1CCCCC1)NS(=O)(=O)c1cccc(Cl)c1; target or system = CRFK; assay = cell growth or viability; conditions = 36 h; measurement = CC50; value = > 150 µM
Structure (SMILES) = CCCCn1ccn2c(-c3ccc(Oc4ccnc(C)c4)c(F)c3)c(C)nc2c1=O; test system = human liver microsomes; conditions = 5 µM, 15 min; measurement = metabolized fraction; value = 19%
Structure (SMILES) = O=C(O)COc1ccc(Br)cc1C=NNC(=O)Cc1ccccc1 (mixture of isomers); test system = mouse, PTZ-induced seizure; conditions = oral, 20 mg/kg, 0.5 h, together with: PTZ 85 mg/kg intraperitoneal; measurement = protected animals; value = 100%
Structure (SMILES) = CCCCn1ccn2c(-c3ccc(NC4CCOCC4)c(Cl)c3)c(C)nc2c1=O; test system = human liver microsomes; conditions = 5 µM, 15 min; measurement = metabolized fraction; value = 23%
Structure (SMILES) = O=C(N[C@@H](CC1CCCCC1)C(=O)N[C@@H](C[C@@H]1CCNC1=O)C(O)S(=O)(=O)O)OCc1ccccc1 (stereo partly shown); target or system = feline coronavirus; test system = CRFK, FIPV-1146; scale = reference: CC50 over EC50; measurement = therapeutic index; value = > 7500
Structure (SMILES) = Cc1ccc(C(=O)N/N=C/c2cc(Br)ccc2OCC(=O)O)cc1; assay = Racine scale 0-5; test system = male mice, pilocarpine-induced seizures; conditions = oral, 20 mg/kg, 0.5 h after pilocarpine, unit not given, together with: pilocarpine 300 mg/kg i.p.; scale = higher = more severe; measurement = seizure severity; value = 2.8 ± 0.63

Excerpt of the above (mixed results):
Structure (SMILES) = CCCCn1ccn2c(-c3ccc4[nH]ccc4c3)c(C)nc2c1=O; test system = rat liver microsomes; conditions = 5 µM, 15 min; measurement = metabolized fraction; value = 97%
Structure (SMILES) = CC(C)C[C@H](NC(=O)OCc1cccc(Cl)c1)C(=O)N[C@H](C=O)C[C@@H]1CCNC1=O; target or system = feline coronavirus; test system = CRFK, FIPV-1146; scale = reference: CC50 over EC50; measurement = therapeutic index; value = > 3750
